# Measured values gathered from unrelated publications.
# A part holds a random share of what one study measured. Changes are numbered by the printed parent chain.

# Block 1
# Target: CCNF, cyclin fold, Cln2 fusion (human)
# Method: yeast growth competition, sequencing
# Sample: yeast
# Setting: strong parent motif
# Reference: not given
# Reading: higher = stronger binding
# Starting sequence: PKMYT1 docking peptide (human); SFEPRNLLSLFED
Substitution,normalised enrichment score
SFEPRNLLSLDED [F11D],0.276
SFEPSNLLSLFED [R5S],-1.77
SREPRNLLSLFED [F2R],0.94
SQEPRNLLSLFED [F2Q],1.12
SFEPRNLLSLRED [F11R],-1.11
SFEPFNLLSLFED [R5F],-0.806
SFTPRNLLSLFED [E3T],2.88
SFEPDNLLSLFED [R5D],-0.838
SFEPANLLSLFED [R5A],-0.791
SFEPRNLLSLAED [F11A],-1.01
SFEPRNLLSLFFD [E12F],0.841
SFEPRNLLILFED [S9I],0.227
SFEPRNPLSLFED [L7P],-0.809
SFEPRNLLSLFER [D13R],1.85
SFEPRNLLSLFKD [E12K],0.391
SFEGRNLLSLFED [P4G],-0.164

# Block 2
# Target: RING finger protein unkempt homolog, zinc fingers 1-6, SBP tag (UNK, Homo sapiens, UniProt Q9C0B0, residues 30-357)
# UniProt Q9C0B0, sequence (30-357, looked up): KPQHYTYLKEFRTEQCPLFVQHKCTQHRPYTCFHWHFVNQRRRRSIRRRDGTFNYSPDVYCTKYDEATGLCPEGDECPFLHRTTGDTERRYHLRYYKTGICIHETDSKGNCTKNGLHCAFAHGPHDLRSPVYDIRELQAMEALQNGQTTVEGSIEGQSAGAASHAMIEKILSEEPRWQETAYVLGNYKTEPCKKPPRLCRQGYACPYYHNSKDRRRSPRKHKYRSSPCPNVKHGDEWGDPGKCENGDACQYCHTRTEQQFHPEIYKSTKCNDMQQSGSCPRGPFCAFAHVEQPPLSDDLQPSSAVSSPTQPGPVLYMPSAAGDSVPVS
# Method: RNA Bind-n-Seq
# Form: RNA
# Sample: in vitro
# Concentration: 100 nM
# Setting: RNA with constant flanks, vertebrate orthologous sites, ends assumed
# Reference: input RNA pool
# Reading: higher = stronger binding
# Constant ends, left off below: GGGAGUUCUACAGUCCGACGAUC … CAACAGAGGAUUGAGCAUCA
Sequence,bound/input enrichment [ratio]
AGAACCUAUUUGCUGUCCCGCUACUGCCACGGGUGUGUCGGAGGCGCUGCAAGGGGUCCAUGGUUUUUUUUUUUUUGCUGCCUCAGUCCCCAGAGCCUUCAAGCGGCGGUGGCAGUAGAU,0.355
UCAUCUCUUUUUAUAUGUCCAAACAUGGCUUUGAACUUUUAAACAGUUGCUAGUUUUACUUAGCUCUACCCUCAUGAAGUAUCUUUGCUGUUGAUCACUGACAGACACCUGUCUGUUACU,0.459
AUGUAGUUUGUUUUUAAUUUCAAGCAAAAUCUUAUUGUACUUGAAUGUGCCCUGUUUUGUUAGCACACCUAGACUUGCUGUAAACUGUACUCAUGUCCCAGUAUGUACGUUCUUUCUAUG,1.2
UGUCUGCCUCAUUCUAAAAUUUACACAGUAGACCAUUUGUCAUCCAUGCUGUCCCACAAAUAGUUUUUUGUUUACGAUUUAUGACAGGUUUAUGUUACUUCUAUUUGAAUUUCUAUAUCU,0.901
GAAGAUGGUGGUUGUACAUUAUUCAUCUAGAAAAUAUAAAAAUUCAUUUUGUUUUGAAGCUAGUUAUUAAACUGGAAUAGCAGUUAUAUCCCUGAGAAUGGGGCCCUUCUCUUGACAUUC,2.45
CAGCUGAUUCACUUAUUGGGCGAGCUGCACAUAUAGCUGUUCUUGAUUCAGAAAUAUUUUUAGAGAAAUUCUUCCUGGUUGCUGCCCUCAAAUAUUUCCAAUAGAUUAAAAACAUUGUUA,1.33
UUGUGAGGAGUGGGAAAGAUGAGAUUCUUCCCCCUCCAAGUAAAACUGACGUAACUUCCUUUUAGUAUUGUCUUAGAAAACAAAGAUGCCCUUUUCUCUUAAUUGUGACACCACUAUCCC,1.97
UCCGCUGAACCCCAUUUCUUCUGUUUCAUAGUGCAGAAGUAUUCUUUUCAAUUAUAUUUUUAGUGGACUUGUUUUAAUUUUAGAGGAAUUUCCAGCACAGAUACUGUGAGCUGACAUGGA,6.91

# Block 3
# Target: Interferon regulatory factor 3, full length, phosphomimetic (IRF3, Homo sapiens, UniProt Q14653, residues 1-427, S386D/S396D/S398D/S402D/T404D/S405D)
# UniProt Q14653, sequence (whole entry, unmodified, looked up): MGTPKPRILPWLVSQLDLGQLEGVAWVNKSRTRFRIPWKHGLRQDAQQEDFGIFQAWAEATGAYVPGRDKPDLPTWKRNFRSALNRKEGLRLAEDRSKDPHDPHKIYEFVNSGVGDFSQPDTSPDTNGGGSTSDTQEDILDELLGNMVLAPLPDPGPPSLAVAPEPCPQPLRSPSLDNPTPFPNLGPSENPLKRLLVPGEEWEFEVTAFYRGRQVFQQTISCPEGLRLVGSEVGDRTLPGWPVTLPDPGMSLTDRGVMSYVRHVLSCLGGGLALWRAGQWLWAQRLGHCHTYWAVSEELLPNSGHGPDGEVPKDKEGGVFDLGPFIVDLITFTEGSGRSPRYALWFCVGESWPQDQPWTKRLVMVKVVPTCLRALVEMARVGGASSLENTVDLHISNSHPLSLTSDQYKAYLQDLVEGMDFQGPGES
# Method: protein-binding microarray
# Form: double-stranded DNA, one strand shown
# Sample: in vitro
# Concentration: 2540 nM top
# Setting: 60-bp whole probe
# Together with: salmon DNA 0.4 mg/ml
# Reference: random background probes
# Reading: higher = stronger binding
# Constant ends, left off below: GCCTAGCAC … GTCTTGATTCGCTTGACGCTGCTG
Sequence,fitted relative affinity
TCATCTCTGGTCTTTGTACTGTGCTAG,0.704 z-score
GACGGTATCGATATCGGGACGTGCTAG,2.73 z-score
GCCGGTTTCCTTTCCCTGACGTGCTAG,9.99 z-score
GACGGACTGGGTTTCAGGACGTGCTAG,0.193 z-score
TTAGGTGTCCTTCTCCTTTAGTGCTAG,4.74 z-score
TTAGATCTCGGGTTTCGATTAGTGCTA,1.54 z-score
TTAGGACTGGGTTTCGGTTCGTGCTAG,4.25 z-score
TCCTTTTAATTTTTAACGAGGTGCTAG,3.8 z-score
GACGTTCTCAGACTGGAGACGTGCTAG,0.967 z-score
TCAGGTATCCTACTGCTTTAGTGCTAG,2.56 z-score
TTAGAACTGGGGTATTGATTAGTGCTA,-0.697 z-score
CAGGAATGGCACCAGCAGGGGTGCTAG,-0.713 z-score
GACGGTCTTCTTCTCCTGACGTGCTAG,1.04 z-score
TTAGAACTAAGACTGGATTAGTGCTAG,-0.378 z-score
TTCGGTATCGACACTGGGTTAGTGCTA,1.01 z-score
TTAGATCTCAGTTTGGATTAGTGCTAG,0.44 z-score
TTGTGTTTGGGCATTTTTCTAGTGCTA,-0.555 z-score

# Block 4
# Target: Histone acetyltransferase KAT6A, winged helix 1, GST fusion (KAT6A, Homo sapiens, UniProt Q92794, residues 1-85)
# Method: protein binding microarray
# Form: double-stranded DNA, one strand shown
# Sample: in vitro
# Concentration: not given
# Setting: 8-mer, flanks averaged, mean of 2 arrays, mostly near background
# Reference: not given
# Reading: higher = stronger binding
# Construct (chain): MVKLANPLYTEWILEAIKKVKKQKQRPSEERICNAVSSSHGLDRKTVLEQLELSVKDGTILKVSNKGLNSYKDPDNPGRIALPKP
Sequence,E-score
TAATTGAA,-0.0502
GTTGAGCA,-0.184
AGGGGGGC,-0.119
GTGAGAAC,-0.144
ACGCACGT,0.232
AAGCGGAT,0.124
ACTAGAAA,-0.138
ATTTATAA,-0.147
CGGCTAGC,0.295
AAGAAGTG,-0.117
ATACCCTC,-0.0313
GGATTTGA,-0.0633
GGTTCTGA,0.0293
AGCTTACC,-0.0213
ATGAGATC,-0.183
GTTGCGGA,0.0086
AGTTCCCA,-0.0499
CTGGGCTC,-0.293
CTCGGAGC,0.0438
CAAGCTCG,-0.188
AAAACTTT,-0.159
CCCGACTA,0.159
CCCGCATC,0.152
ATTTATCA,-0.0513
CTGTCCCC,0.0482

# Some of these lines once more (block 4):
Sequence,E-score
GGATTTGA,-0.0633
GGTTCTGA,0.0293
AGCTTACC,-0.0213
ATGAGATC,-0.183
GTTGCGGA,0.0086
AGTTCCCA,-0.0499
CTGGGCTC,-0.293
CTCGGAGC,0.0438
CAAGCTCG,-0.188
AAAACTTT,-0.159
CCCGACTA,0.159
